{"data": "Measurements collected from several papers", "note": "Each numbered part is a random draw from the data of one study; scales do not carry over between parts. Changes are numbered by the printed parent chain."}
{"data": "Set 1", "target": "ABI1, truncated, D143A, DHFR fusion (Arabidopsis thaliana)", "technique": "DHFR PCA, deep sequencing", "sample": "yeast", "setting": "methotrexate growth selection, single substitutions", "together with": "(+)-ABA 200 µM", "baseline": "wild-type fitted maximum", "reading": "higher = stronger binding", "starting sequence": "PYL1, truncated, DHFR fusion (Arabidopsis thaliana); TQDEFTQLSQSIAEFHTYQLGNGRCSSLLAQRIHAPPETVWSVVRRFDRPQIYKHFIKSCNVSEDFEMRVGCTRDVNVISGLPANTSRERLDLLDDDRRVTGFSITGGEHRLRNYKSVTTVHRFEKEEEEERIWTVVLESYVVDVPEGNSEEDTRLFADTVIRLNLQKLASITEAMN"}
{"Substitution": "N85F", "relative binding score [%]": 101}
{"Substitution": "I57G", "relative binding score [%]": 3.05}
{"Substitution": "N22E", "relative binding score [%]": 102}
{"Substitution": "P50R", "relative binding score [%]": 5.19}
{"Substitution": "W41F", "relative binding score [%]": 38.6}
{"Substitution": "A13S", "relative binding score [%]": 98.6}
{"Substitution": "S80H", "relative binding score [%]": 72.1}
{"Substitution": "R88P", "relative binding score [%]": 8.29}
{"Substitution": "H110D", "relative binding score [%]": 3.33}
{"Substitution": "D159V", "relative binding score [%]": 9.94}
{"Substitution": "A175I", "relative binding score [%]": 90.7}
{"Substitution": "T17K", "relative binding score [%]": 85.9}
{"Substitution": "G81A", "relative binding score [%]": 63.2}
{"Substitution": "T154L", "relative binding score [%]": 56.3}
{"Substitution": "C72G", "relative binding score [%]": 93.3}
{"Substitution": "R132F", "relative binding score [%]": 99.5}
{"Substitution": "A30Y", "relative binding score [%]": 99.1}
{"Substitution": "S27E", "relative binding score [%]": 64.8}
{"Substitution": "D144I", "relative binding score [%]": 34.9}
{"Substitution": "E14W", "relative binding score [%]": 62.1}
{"Substitution": "D153K", "relative binding score [%]": 8.7}
{"Substitution": "D65G", "relative binding score [%]": 102}
{"Substitution": "Y18N", "relative binding score [%]": 88.9}
{"Substitution": "N177G", "relative binding score [%]": 97.5}
{"Substitution": "F157V", "relative binding score [%]": 76.5}
{"data": "Set 2", "target": "Ras GTPase-activating protein-binding protein 1, RRM domain (G3BP1, Homo sapiens, UniProt Q13283)", "technique": "RNA Bind-n-Seq", "form": "RNA", "sample": "in vitro", "concentration": "1 µM", "setting": "whole 134-nt RNA, ends assumed", "together with": "150 mM KCl", "baseline": "input library", "reading": "higher = stronger binding", "shared flanks, not repeated": "GGGAGUUCUACAGUCCGACGAUC … UGGAAUUCUCGGGUGUCAAGG", "chain of UniProt Q13283 (whole entry, looked up)": "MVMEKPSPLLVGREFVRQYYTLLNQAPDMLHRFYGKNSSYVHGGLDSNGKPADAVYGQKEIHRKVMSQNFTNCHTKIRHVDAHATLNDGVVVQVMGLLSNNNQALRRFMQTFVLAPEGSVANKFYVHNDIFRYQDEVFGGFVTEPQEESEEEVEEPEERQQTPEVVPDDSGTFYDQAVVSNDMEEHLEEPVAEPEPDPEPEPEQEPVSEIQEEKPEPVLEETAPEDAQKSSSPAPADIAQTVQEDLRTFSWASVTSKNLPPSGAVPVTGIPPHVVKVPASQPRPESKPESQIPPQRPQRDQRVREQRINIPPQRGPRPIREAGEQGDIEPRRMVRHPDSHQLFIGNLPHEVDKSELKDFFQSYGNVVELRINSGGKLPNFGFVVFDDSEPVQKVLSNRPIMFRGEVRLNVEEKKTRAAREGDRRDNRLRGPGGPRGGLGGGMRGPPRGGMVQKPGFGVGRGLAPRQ"}
{"Oligonucleotide": "CACAGACAACACGCACCCACACAGACACAGAGGGAAGGGGUUGGGAUGGGGACAGGGUGUACAGCAGGGCGGGGUAGGACCCCAGCCCCU", "log2 enrichment": -0.0979}
{"Oligonucleotide": "UCCUGUGCUACACAUCGUAUGUACCGAAUCGGGAAAAAGGGAAAAAAAGGGAAAAAGGGAAAGUAUUAUGUUACGCCGUUCGGAUCUGCA", "log2 enrichment": 0.194}
{"Oligonucleotide": "AGUCCUGUGCUACACAUCGUAUGUACCGAAUCGGGAAAAAGGGUUUUUUUGGGUGGGAAAGUAUUAUGUUACGCCGUUCGGAUCUGCACU", "log2 enrichment": 0.603}
{"Oligonucleotide": "UCUAGAUACAGAUGCACGAUUUGGCCAUGGAUCCGACUACUCUCGCCAACAGAACAGAUUUAAUGACUUUGAUCACCGAGAGAGGGGCAG", "log2 enrichment": -0.0382}
{"Oligonucleotide": "UGGGUUCUUAUUUCUAACUUGCAUAUGUUUUGUUUUUCAGAAGGAGUUGAGCCUUCCAAGAAGAGGCAGCUUGUAAGUAGAUGAUUAUUA", "log2 enrichment": -0.249}
{"Oligonucleotide": "UUCCUCAAGUCCUGUGCUACACAUCGUAUGUACCGAAUCGUGUGUGUGUGUAAAGUAUUAUGUUACGCCGUUCGGAUCUGCACUUCCAGC", "log2 enrichment": -0.109}
{"Oligonucleotide": "AGUCCUGUGCUACACAUCGUAUGUACCGAAUCGGUUUUUUUGGAAAAAAAGGUUUGGAAAGUAUUAUGUUACGCCGUUCGGAUCUGCACU", "log2 enrichment": -0.665}
{"Oligonucleotide": "AAGUCCUGUGCUACACAUCGUAUGUACCGAAUCGGGAAAAGGAAAAGGGGAAAAGGGAAAGUAUUAUGUUACGCCGUUCGGAUCUGCACU", "log2 enrichment": 0.00589}
{"Oligonucleotide": "CAAGUCCUGUGCUACACAUCGUAUGUACCGAAUCGGGAAAGGGUUUUUGGGAGGGAAAGUAUUAUGUUACGCCGUUCGGAUCUGCACUUC", "log2 enrichment": 0.806}
{"data": "Set 3", "organism": "Saccharomyces cerevisiae", "effect on": "mating pheromone growth arrest", "technique": "pooled competitive growth deep sequencing", "form": "peptide", "strain": "no Cln2 overexpression", "setting": "peptide tiling library", "reading": "direction not given"}
{"Molecule": "LAKRALKYTD", "enrichment score": -0.0329}
{"Molecule": "SDSTVTKLDFDLEP", "enrichment score": 0.235}
{"Molecule": "IQKKLRFEDTLEFVGF", "enrichment score": -0.276}
{"Molecule": "CFRCLLFSFSGRSGVE", "enrichment score": 0.077}
{"Molecule": "LKGRRLVFDN", "enrichment score": 0.287}
{"Molecule": "EPKTLFLGAGDFQF", "enrichment score": 0.702}
{"Molecule": "RVSGLLSWTLSRVLWL", "enrichment score": -0.682}
{"Molecule": "ALLRRLQDVANDRGSH", "enrichment score": 0.233}
{"Molecule": "RSLKLDGLLEEN", "enrichment score": 0.103}
{"Molecule": "VLLKRLQDVVSERANH", "enrichment score": -0.209}
{"data": "Set 4", "target": "Histone acetyltransferase KAT6A, both winged helices, GST fusion (KAT6A, Homo sapiens, UniProt Q92794, residues 1-181)", "technique": "protein binding microarray", "form": "double-stranded DNA, one strand shown", "sample": "in vitro", "concentration": "not given", "setting": "8-mer, flanks averaged, mean of 2 arrays, mostly near background", "baseline": "not given", "reading": "higher = stronger binding", "Target sequence (chain)": "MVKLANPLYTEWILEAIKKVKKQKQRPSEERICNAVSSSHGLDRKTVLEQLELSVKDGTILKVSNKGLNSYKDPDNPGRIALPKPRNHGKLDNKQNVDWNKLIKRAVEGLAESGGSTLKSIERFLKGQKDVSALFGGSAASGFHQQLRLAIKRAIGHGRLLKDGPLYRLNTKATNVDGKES"}
{"Oligonucleotide": "TGATGCCA", "E-score": -0.0721}
{"Oligonucleotide": "GCGTGGGA", "E-score": 0.0956}
{"Oligonucleotide": "CAACTATC", "E-score": -0.124}
{"Oligonucleotide": "ATCTGTGA", "E-score": 0.00515}
{"Oligonucleotide": "AACCCAGC", "E-score": -0.0696}
{"Oligonucleotide": "CACAGTGA", "E-score": -0.124}
{"Oligonucleotide": "GATCAATC", "E-score": 0.066}
{"Oligonucleotide": "CTGCAGTC", "E-score": -0.191}
{"Oligonucleotide": "CCTGGGGC", "E-score": -0.0892}
{"Oligonucleotide": "ACGAGTCA", "E-score": -0.126}
{"Oligonucleotide": "ATGATTCA", "E-score": -0.0136}
{"Oligonucleotide": "CGCCCTAG", "E-score": 0.0173}
{"Oligonucleotide": "ATTGCCGG", "E-score": 0.263}
{"Oligonucleotide": "AAAATCAT", "E-score": -0.0961}
{"Oligonucleotide": "TACTGATA", "E-score": 0.000695}
{"Oligonucleotide": "ATTACGGG", "E-score": 0.137}
{"Oligonucleotide": "CTCTTAAC", "E-score": -0.0987}
{"Oligonucleotide": "TAATCATA", "E-score": -0.0728}
{"Oligonucleotide": "ATGCTAAG", "E-score": -0.0831}
{"Oligonucleotide": "ATAGCCTA", "E-score": -0.181}
{"Oligonucleotide": "ACTTGAAA", "E-score": -0.173}
{"Oligonucleotide": "ACGCGTAC", "E-score": 0.308}
{"data": "Set 5", "target": "RING finger protein unkempt homolog, zinc fingers 1-6, SBP tag (UNK, Homo sapiens, UniProt Q9C0B0, residues 30-357)", "technique": "RNA Bind-n-Seq", "form": "RNA", "sample": "in vitro", "concentration": "100 nM", "setting": "RNA with constant flanks, vertebrate orthologous sites, ends assumed", "baseline": "input RNA pool", "reading": "higher = stronger binding", "shared flanks, not repeated": "GGGAGUUCUACAGUCCGACGAUC … CAACAGAGGAUUGAGCAUCA", "chain of UniProt Q9C0B0 (30-357, looked up)": "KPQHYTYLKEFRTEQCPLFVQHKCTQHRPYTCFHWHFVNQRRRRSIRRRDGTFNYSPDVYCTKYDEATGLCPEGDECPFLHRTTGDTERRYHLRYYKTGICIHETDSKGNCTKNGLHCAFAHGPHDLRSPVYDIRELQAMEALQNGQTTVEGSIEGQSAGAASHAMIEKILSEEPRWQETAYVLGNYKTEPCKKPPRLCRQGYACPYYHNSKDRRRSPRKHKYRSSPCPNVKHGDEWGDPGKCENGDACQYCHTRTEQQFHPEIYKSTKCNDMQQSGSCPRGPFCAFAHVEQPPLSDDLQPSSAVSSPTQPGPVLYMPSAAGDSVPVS"}
{"Oligonucleotide": "UAUUUUCUUAUUUUAGGUAUCAUUGCCCAGUGCCCAAGAUCUUUUAUGUUCAGCUGACUGUGGGAAAUAAUGAAUUUUUUGGGGAAGGGAAGACUCGACAAGCCGCUAGACACAAUGCCG", "bound/input enrichment [ratio]": 1.64}
{"Oligonucleotide": "GUUAGGUCAUGACCCUUACAGAUUAGGUCAUGAUGCUUAUAGGUUAGGACAGGACCCCUAUAGAUUAGGCCACGAUCCCUACAGACUAACUCCUGAUCCCUAUAGGAUGUCACCUAGACC", "bound/input enrichment [ratio]": 0.976}
{"Oligonucleotide": "UGUAUGUGUGUAUGUGUGGGUUUGGGGGGAGGGGGCAAGACAGGUGGAAUCUCUAGGGUGUAUGGUAGUAGGAAGCACAGUGCUAAGUGGGCCUUUAUGUUAAACACAUCUGGGAGUGUC", "bound/input enrichment [ratio]": 0.721}
{"Oligonucleotide": "CAUCUCUCAUUUAAAGAUUCCAAAAUAACUUUGAAUUUUUCAAGAGUUGCUAGUUUUACUUAGCUCUACCCUCAGGAGGUGUUAAGAGUUCACCACCAGCAGAUCGCUGUCUGCUUUAUG", "bound/input enrichment [ratio]": 0.461}
{"Oligonucleotide": "ACUGUUGUUAAGCACUGUGUUCCAGACCGUGUCUGACUUAGUGUAACCUAGGAGAUUUUAUAGUUUUAUUUUAAUGAAAUCCUAAUUGACGCACAGCAGUGGGGAGAACAGCGUCUUUUA", "bound/input enrichment [ratio]": 3.87}
{"Oligonucleotide": "CAACUCAAUGGUGGAGGGUUCAGAACUCAAAAAGGUCCGCUCCAACUCUAGAAUAUACCAUAGGUAUUUUUUACUAGAUGCUGACAUGCAAAGCCUGAGGUGGGAGCCAUCUAAGAAGGA", "bound/input enrichment [ratio]": 0.185}
{"Oligonucleotide": "CUGCUGACUCGCUCAUCGGGAGAGCCGCACACAUAGCUGUUCUUGAUUCGGAAAUAUUUUUAGAGAAGUUUUUUCUGGUUGCUGCCCUCAAAUAUUUCCAGUAGGACAGAAGCAUCAUUA", "bound/input enrichment [ratio]": 0.479}
{"Oligonucleotide": "AUUUAGAAUCUUAGUAAAUUGCUCCAAGAUUCUUAAAGUCAGUUUUGUAAGAUCAGACCAUAGGUUGGUGUUCUUUUAAGCUUGUGUACUGUGUCCAACGUCACAUUUUUUAAAGUGUUC", "bound/input enrichment [ratio]": 0.305}
{"note": "Excerpt of the above (set 5):"}
{"Oligonucleotide": "GUUAGGUCAUGACCCUUACAGAUUAGGUCAUGAUGCUUAUAGGUUAGGACAGGACCCCUAUAGAUUAGGCCACGAUCCCUACAGACUAACUCCUGAUCCCUAUAGGAUGUCACCUAGACC", "bound/input enrichment [ratio]": 0.976}
{"Oligonucleotide": "UGUAUGUGUGUAUGUGUGGGUUUGGGGGGAGGGGGCAAGACAGGUGGAAUCUCUAGGGUGUAUGGUAGUAGGAAGCACAGUGCUAAGUGGGCCUUUAUGUUAAACACAUCUGGGAGUGUC", "bound/input enrichment [ratio]": 0.721}
{"Oligonucleotide": "CAUCUCUCAUUUAAAGAUUCCAAAAUAACUUUGAAUUUUUCAAGAGUUGCUAGUUUUACUUAGCUCUACCCUCAGGAGGUGUUAAGAGUUCACCACCAGCAGAUCGCUGUCUGCUUUAUG", "bound/input enrichment [ratio]": 0.461}
{"Oligonucleotide": "ACUGUUGUUAAGCACUGUGUUCCAGACCGUGUCUGACUUAGUGUAACCUAGGAGAUUUUAUAGUUUUAUUUUAAUGAAAUCCUAAUUGACGCACAGCAGUGGGGAGAACAGCGUCUUUUA", "bound/input enrichment [ratio]": 3.87}
